# Results gathered from unrelated publications.
# Lines come from different studies, so protocols differ.
# Organism: Escherichia coli
SMILES,assay,test system,conditions,quantity,value
CC[C@H](C)[C@H](NC(=O)[C@H](CO)NC(=O)[C@H](CO)NC(=O)[C@H](Cc1ccccc1)NC(=O)CN)C(=O)N[C@@H](Cc1ccccc1)C(=O)N[C@@H](CCCNC(=N)N)C(N)=O,,ATCC 8739,with: 2.5 mM CaCl2,MBC,> 128 µM
C[C@]1(COC(=O)Cc2ccc(O)c(O)c2)[C@H](C(=O)O)N2C(=O)/C(=C/c3ccccn3)[C@H]2S1(=O)=O,broth microdilution,MG1655 expressing CTX-M-2,16 µg/mL,MIC of ceftazidime,≤ 1 µg/mL
CC[C@H](C)[C@H](NC(=O)[C@H](CCCCN)NC(=O)[C@H](CCCCN)NC(=O)[C@H](CC(C)C)NC(=O)[C@H](CCCCN)NC(=O)[C@H](CCC(=O)O)NC(=O)[C@H](CCCCN)NC(=O)[C@@H](NC(=O)[C@H](CCCCN)NC(=O)[C@H](CC(N)=O)NC(=O)[C@H](CCCNC(=N)N)NC(=O)[C@H](Cc1ccccc1)NC(=O)[C@H](CCCCN)NC(=O)[C@H](CCCNC(=N)N)NC(=O)[C@H](CC(C)C)NC(=O)[C@H](CCCNC(=N)N)NC(=O)[C@H](CCCCN)NC(=O)[C@H](CCCNC(=N)N)NC(=O)[C@H](CC(C)C)NC(=O)[C@@H](N)CCCNC(=N)N)[C@@H](C)CC)C(=O)NCC(=O)N[C@@H](CCC(N)=O)C(=O)N[C@@H](CCCCN)C(=O)N[C@H](C(=O)N[C@@H](CCC(N)=O)C(=O)NCC(=O)N[C@@H](Cc1ccccc1)C(=O)N[C@H](C(=O)N1CCC[C@H]1C(=O)N[C@@H](CCCCN)C(=O)N[C@@H](CC(C)C)C(=O)N[C@@H](CCC(N)=O)C(=O)N1CCC[C@H]1C(=O)N[C@@H](CO)C(=O)N[C@@H](CCCCN)C(=O)N[C@@H](CCC(N)=O)C(=O)N[C@@H](CO)C(=O)O)C(C)C)[C@@H](C)CC,inhibition zone,JM109,,lethal concentration,3 µM
CCCCCCCCCCCCCC(=O)N[C@@H](Cc1ccccc1)C(=O)N[C@@H](CCCCN)C(=O)N[C@@H](CCCCN)C(=O)N[C@@H](CCCCN)C(=O)N[C@@H](CCCCN)C(N)=O,,K12,,MBC,64 µg/mL
COc1ccc([C@H]2N[C@H](C(=O)O)Cc3c2[nH]c2ccccc32)c(OC)c1,,BL21(DE3),"250 µM, 18 h",growth inhibition,0%
CCCC(=O)NCC(=O)N[C@@H](CC(C)C)C(=O)N[C@@H](CC(C)C)C(=O)N[C@@H](CCCCN)C(=O)N[C@@H](CCCNC(=N)N)C(=O)N[C@H](C(=O)N[C@@H](CCCCN)C(=O)N[C@H](C(=O)N[C@@H](CC(C)C)C(=O)N[C@@H](CC(C)C)C(=O)NCCCC[C@H](NC(=O)[C@H](CC(C)C)NC(=O)[C@H](CC(C)C)NC(=O)[C@@H](NC(=O)[C@H](CCCCN)NC(=O)[C@@H](NC(=O)[C@H](CCCNC(=N)N)NC(=O)[C@H](CCCCN)NC(=O)[C@H](CC(C)C)NC(=O)[C@H](CC(C)C)NC(=O)CNC(=O)CCC)[C@@H](C)CC)[C@@H](C)O)C(N)=O)[C@@H](C)O)[C@@H](C)CC,checkerboard,ATCC 25922,with: rifampicin,FIC index,0.312
CC[C@H](C)[C@H](NC(=O)[C@H](CCCCN)NC(=O)[C@H](CCCCN)NC(=O)[C@H](CC(C)C)NC(=O)[C@H](CCCCN)NC(=O)[C@H](CCC(=O)O)NC(=O)[C@H](CCCCN)NC(=O)[C@@H](NC(=O)[C@H](CCCCN)NC(=O)[C@H](CC(N)=O)NC(=O)[C@H](CCCNC(=N)N)NC(=O)[C@H](Cc1ccccc1)NC(=O)[C@H](CCCCN)NC(=O)[C@H](CCCNC(=N)N)NC(=O)[C@H](CC(C)C)NC(=O)[C@H](CCCNC(=N)N)NC(=O)[C@H](CCCCN)NC(=O)[C@H](CCCNC(=N)N)NC(=O)[C@@H](N)CC(C)C)[C@@H](C)CC)C(=O)NCC(=O)N[C@@H](CCC(N)=O)C(=O)N[C@@H](CCCCN)C(=O)N[C@H](C(=O)N[C@@H](CCC(N)=O)C(=O)NCC(=O)N[C@@H](Cc1ccccc1)C(=O)N[C@H](C(=O)N1CCC[C@H]1C(=O)N[C@@H](CCCCN)C(=O)N[C@@H](CC(C)C)C(=O)O)C(C)C)[C@@H](C)CC,inhibition zone,D. J45b,,lethal concentration,1.41 µM
CC[C@H](C)[C@H](NC(=O)[C@@H]1CCCN1C(=O)[C@H](CCCNC(=N)N)NC(=O)[C@@H]1CCCN1C(=O)[C@@H]1CCCN1C(=O)[C@@H](NC(=O)[C@@H]1CCCN1C(=O)[C@H](CCCNC(=N)N)NC(=O)[C@@H]1CCCN1C(=O)[C@H](CC(C)C)NC(=O)[C@H](Cc1ccc(O)cc1)NC(=O)[C@H](CO)NC(=O)CNC(=O)[C@H](CCCCN)NC(=O)[C@H](CC(=O)O)NC(=O)[C@@H](N)C(C)C)[C@@H](C)O)C(=O)N[C@@H](Cc1ccc(O)cc1)C(=O)N[C@@H](CC(N)=O)C(=O)N[C@@H](CCCNC(=N)N)C(=O)N[C@@H](CC(N)=O)C(=O)NCC(=O)N1CCC[C@H]1C(=O)N[C@@H](CCCNC(=N)N)C(=O)N[C@@H](CC1CCCCC1)C(=O)N[C@@H](Cc1ccccc1)C(=O)N[C@@H](CCC(N)=O)C(=O)N[C@@H](CC(C)C)C(=O)N[C@@H](CC(=O)O)C(=O)O,broth microdilution,D22,,MBC,16 µg/mL
CC[C@H](C)[C@H](NC(=O)[C@H](CCCNC(=N)N)NC(=O)[C@@H](N)CCCNC(=N)N)C(=O)N[C@@H](CCCNC(=N)N)C(=O)N[C@@H](Cc1ccccc1)C(=O)N[C@@H](CCCNC(=N)N)C(=O)N1CCC[C@H]1C(=O)N1CCC[C@H]1C(=O)N[C@@H](Cc1ccc(O)cc1)C(=O)N[C@@H](CC(C)C)C(=O)N1CCC[C@H]1C(=O)N[C@@H](CCCNC(=N)N)C(=O)N1CCC[C@H]1C(=O)NCC(=O)N[C@@H](CCCNC(=N)N)C(=O)N[C@@H](CCCNC(=N)N)C(=O)N1CCC[C@H]1C(=O)N[C@@H](CCCNC(=N)N)C(=O)N[C@@H](Cc1ccccc1)C(=O)N1CCC[C@H]1C(=O)N1CCC[C@H]1C(=O)N1CCC[C@H]1C(=O)N[C@@H](Cc1ccccc1)C(=O)N1CCC[C@H]1C(=O)N[C@H](C(=O)N1CCC[C@H]1C(=O)N[C@@H](CCCNC(=N)N)C(=O)N[C@H](C(=O)N1CCC[C@H]1C(=O)N[C@@H](CCCNC(=N)N)C(=O)N[C@H](C(=O)N1CCC[C@H]1C(=O)O)[C@@H](C)CC)[C@@H](C)CC)[C@@H](C)CC,"membrane permeabilization, propidium iodide flow cytometry","BW25113, Mueller-Hinton broth","1 µM, 15 min, 37 °C",PI-positive cells,< 3%
CC[C@H](C)[C@H](NC(=O)[C@H](CCCNC(=N)N)NC(=O)[C@H](CCCCN)NC(=O)[C@H](CC(C)C)NC(=O)[C@H](CC(C)C)NC(=O)CN)C(=O)N[C@@H](CCCCN)C(=O)N[C@H](C(=O)N[C@@H](CC(C)C)C(=O)N[C@@H](CC(C)C)C(=O)NCCCC[C@H](NC(=O)[C@H](CC(C)C)NC(=O)[C@H](CC(C)C)NC(=O)[C@@H](NC(=O)[C@H](CCCCN)NC(=O)[C@@H](NC(=O)[C@H](CCCNC(=N)N)NC(=O)[C@H](CCCCN)NC(=O)[C@H](CC(C)C)NC(=O)[C@H](CC(C)C)NC(=O)CN)[C@@H](C)CC)[C@@H](C)O)C(=O)NCCCC[C@H](NC(=O)[C@H](CCCCNC(=O)[C@H](CC(C)C)NC(=O)[C@H](CC(C)C)NC(=O)[C@@H](NC(=O)[C@H](CCCCN)NC(=O)[C@@H](NC(=O)[C@H](CCCNC(=N)N)NC(=O)[C@H](CCCCN)NC(=O)[C@H](CC(C)C)NC(=O)[C@H](CC(C)C)NC(=O)CN)[C@@H](C)CC)[C@@H](C)O)NC(=O)[C@H](CC(C)C)NC(=O)[C@H](CC(C)C)NC(=O)[C@@H](NC(=O)[C@H](CCCCN)NC(=O)[C@@H](NC(=O)[C@H](CCCNC(=N)N)NC(=O)[C@H](CCCCN)NC(=O)[C@H](CC(C)C)NC(=O)[C@H](CC(C)C)NC(=O)CN)[C@@H](C)CC)[C@@H](C)O)C(N)=O)[C@@H](C)O,checkerboard,ATCC 25922,with: polymyxin B,FIC index,0.125
CC[C@H](C)[C@H](NC(=O)[C@H](CO)NC(=O)[C@H](CO)NC(=O)[C@H](Cc1ccccc1)NC(=O)CN)C(=O)N[C@@H](Cc1ccccc1)C(=O)N[C@@H](CCCNC(=N)N)C(=O)NCC(=O)N[C@H](C(=O)N[C@@H](C)C(=O)N[C@@H](CCCCN)C(N)=O)C(C)C,,ATCC 8739,with: 150 mM NaCl,MBC,> 128 µM
Nc1ncc(/C=N/NC(=O)Cc2c[nH]c3ccccc23)cn1,,TolC,50 µM,growth inhibition,18%

# Some of these lines once more:
SMILES,assay,test system,conditions,quantity,value
CC[C@H](C)[C@H](NC(=O)[C@H](CO)NC(=O)[C@H](CO)NC(=O)[C@H](Cc1ccccc1)NC(=O)CN)C(=O)N[C@@H](Cc1ccccc1)C(=O)N[C@@H](CCCNC(=N)N)C(N)=O,,ATCC 8739,with: 2.5 mM CaCl2,MBC,> 128 µM
C[C@]1(COC(=O)Cc2ccc(O)c(O)c2)[C@H](C(=O)O)N2C(=O)/C(=C/c3ccccn3)[C@H]2S1(=O)=O,broth microdilution,MG1655 expressing CTX-M-2,16 µg/mL,MIC of ceftazidime,≤ 1 µg/mL
